# Assay results collected from several papers.
# Each numbered part is a random draw from the data of one study; scales do not carry over between parts.

# Block 1 — method: protein-binding microarray; molecule type: hairpin DNA; sample: in vitro; tested at: not given; reference: not given; direction: higher = stronger binding
# Target: Cellular tumor antigen p53, full length (TP53, Homo sapiens, UniProt P04637, residues 1-393)
# Setting: whole hairpin DNA, median over replicate spots
Oligonucleotide,median fluorescence
CGGACATGTCCGGGCATGTCTCCTGACATGCCCGGACATGTCCGACACTC,21200 a.u.
CCACACGTGGCGGCATGCCTTCCTAGGCATGCCGCCACGTGTGGACACTC (5mC at 33),6780 a.u.
CCACACGTGGTGGCGTGCCTTCCTAGGCACGCCACCACGTGTGGACACTC (5mC at 14),4310 a.u.
CGGACATGCCCGGGCATGTCTCCTGACATGCCCGGGCATGTCCGACACTC (5mC at 33),20200 a.u.
CGGACATCGCCGGGCATGTCTCCTGACATGCCCGGCGATGTCCGACACTC (5mC at 8 36),12500 a.u.
CGGACAAGCCCGGGCATGTCTCCTGACATGCCCGGGCTTGTCCGACACTC,20200 a.u.
CCACACGTGGTGCGATGCCTTCCTAGGCATCGCACCACGTGTGGACACTC,4560 a.u.
CCACACGTGGTGGCGTGCCTTCCTAGGCACGCCACCACGTGTGGACACTC (5mC at 30),6140 a.u.
CGGACATGCCCGGGCATGTCTCCTGACATGCCCGGGCATGTCCGACACTC (5mC at 5),20300 a.u.
CCACACGCGGTGGCATGCCTTCCTAGGCATGCCACCGCGTGTGGACACTC,6860 a.u.
CCACACGTGGTGGCCTGCCTTCCTAGGCAGGCCACCACGTGTGGACACTC,3910 a.u.
CCACACGTGGTGGCATGCCTTCCTAGGCATGCCACCACGTGTGGACACTC (5mC at 6),7650 a.u.
CGGACATGCCCGTGCATGTCTCCTGACATGCACGGGCATGTCCGACACTC,16200 a.u.
CCACACGTGGCGGCATGCCTTCCTAGGCATGCCGCCACGTGTGGACACTC (5mC at 11),6960 a.u.
CGGACACGCCCGGGCATGTCTCCTGACATGCCCGGGCGTGTCCGACACTC,14700 a.u.
CCACACGTGGTGGCATGCCTTCCTAGGCATGCCACCACGTGTGGACACTC (5mC at 14),7120 a.u.
CGGACATGCCCGGGCCTGTCTCCTGACAGGCCCGGGCATGTCCGACACTC (5mC at 16),11700 a.u.
CGGACATGCCGGGGCATGTCTCCTGACATGCCCCGGCATGTCCGACACTC (5mC at 10 34),13500 a.u.
CGGACATCCCCGGGCATGTCTCCTGACATGCCCGGGGATGTCCGACACTC (5mC at 8),11000 a.u.

# Block 2 — method: RNAcompete; molecule type: RNA; sample: in vitro; tested at: 20 nM; setting: 7-mer, probes averaged, single round; reference: mean of 7-mers; direction: higher = stronger binding
# Target: PABPC1L2, full length, GST fusion (mouse, UniProt A0ABA7IW68)
# Target sequence (chain): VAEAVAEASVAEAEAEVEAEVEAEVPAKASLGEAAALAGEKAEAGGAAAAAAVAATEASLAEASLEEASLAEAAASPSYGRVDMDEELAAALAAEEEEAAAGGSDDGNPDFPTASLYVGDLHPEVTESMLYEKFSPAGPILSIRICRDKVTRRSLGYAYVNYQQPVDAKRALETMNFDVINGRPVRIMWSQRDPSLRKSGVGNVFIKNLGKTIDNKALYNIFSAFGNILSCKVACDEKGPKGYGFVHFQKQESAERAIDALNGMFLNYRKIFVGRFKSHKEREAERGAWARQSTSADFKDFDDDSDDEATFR
Oligonucleotide,7-mer Z-score
CACGUAG,-0.05
CUUACUA,-0.255
CUUGCAC,-0.258
GCGAUUA,0.0152
AGCCUGG,-0.132
CCUUCUG,-0.331
GCGGCGU,-0.00289
ACUGAAG,-0.0645
GGCACAA,0.3
GAAAUGA,0.427
AGAUUCA,-0.18
GACAGUU,-0.168
AUCUACA,-0.0899
GGCGUCU,-0.157
UUGGUGU,-0.309
GAUGGCG,-0.0554
CAGUGUA,0.0442
CGGGGCU,0.2
GUCAAAU,-0.206

# Block 3 — method: RNA Bind-n-Seq; molecule type: RNA; sample: in vitro; tested at: not given; reference: input RNA pool; direction: higher = stronger binding
# Target: RING finger protein unkempt homolog, zinc fingers 1-6, GST-SBP tag (UNK, Homo sapiens, UniProt Q9C0B0, residues 30-357)
# Setting: RNA with constant flanks, human and mouse sites, ends assumed
# Constant ends, left off below: GGGAGUUCUACAGUCCGACGAUC … CAACAGAGGAUUGAGCAUCA
# Target sequence (chain): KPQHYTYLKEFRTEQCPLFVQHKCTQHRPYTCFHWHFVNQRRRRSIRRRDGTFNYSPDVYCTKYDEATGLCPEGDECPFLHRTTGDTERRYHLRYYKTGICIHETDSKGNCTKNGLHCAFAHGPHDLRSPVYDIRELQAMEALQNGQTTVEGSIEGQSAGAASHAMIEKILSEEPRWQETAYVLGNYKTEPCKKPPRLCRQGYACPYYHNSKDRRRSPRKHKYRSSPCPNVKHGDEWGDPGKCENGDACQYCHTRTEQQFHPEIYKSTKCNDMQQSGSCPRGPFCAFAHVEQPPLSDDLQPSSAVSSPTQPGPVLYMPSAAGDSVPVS
Oligonucleotide,bound/input enrichment
CGUCCUUGUUAAGCACUGCUUUCCAGACCGUGUCUGACUUAGUCAACCUAGAGGAUUUUAUAGUUUCACUCUAAUGAAGUCCUGAUUAACACAGAGCAGCGGAGCAGCGGUCCCUCCCCU,0.41 ratio
CCUACAAAUCUCCUUAAUUAUAACAUUCACAGCCACAGAACUAAUCAUAUUUUAUAUCUUCUUCGAAACCACACUUAUCCCCACCUUGGCUAUCAUCACCCGAUGAGGCAACCAGCCAGA,2.25 ratio
UCAGGGUGGAAGUCCAUGAUUCAGUCUCACCCUCAUUUAGUAGCAGAAGCCUUUCGAGCACUAGCAUCUGCACAGUGUCCACAGUUUGGCAUUCCACGCAAACGGCUAAAACAGUCCUGA,0.0996 ratio
CCAGUUUGUAUGUACAUUAUUCAUAUUCCUCUCUGUUGUGUUUCGGGGGGAAAAGACAUUUUAGCCUUUUUUAAAAGUUACUGAUUUAAUUUCAUGUUAUUUGGUUGCAUGAAGUUGCCC,6.13 ratio
UACUUUUAUUCCAAGGGGGAGCUCAGGAGAUGGCAUUCCCAGAAAGUAUUUUAGUACAUCAAGCGACCAGAGCCAAAGCCUUAAAUCCAACCCACACACAACUGAAGAUCGCCUCCUCCC,0.463 ratio
CCAGACAGCCCCUCUCCAGAUAGAUUUGGGAUGUUGCCAUUGGGUGAGCCUGCUGUUCUCAUCAGUGAGUUCCUGGACCGGUUUCAAAGCCUUUGCCAUUUGGACCUCCAACUUCCUUCU,0.0979 ratio
GACACCUAUCCAGUGUUUCAGAGACUCUUCCUUGAGAGUUCUGAUGCGAACCCAGUGCGCUAUGGACGUAGGCGGAUGAAGCUCCGGGACCUAAUGGAAGCAGCCAAUAUAUUUCUACAG,0.177 ratio
AGGCUCAUCCAGCCAUAUAUCCAUAACUACUCCUGGCUGCUCUUUGCUGCCCUGGCUCUCUAUAGCGCCCACCUGGCCAGUGCAGAGGAUGUGGAUGGGGAGAAGCUGGACCCCCAGACG,0.359 ratio

# Block 4 — method: universal PBM; molecule type: double-stranded DNA, one strand shown; sample: in vitro; tested at: 600 nM; direction: higher = stronger binding
# Target: Sal-like protein 4, full length isoform A (SALL4, Homo sapiens, UniProt Q9UJQ4, residues 1-1053)
# Sequence of UniProt Q9UJQ4 (whole entry, looked up): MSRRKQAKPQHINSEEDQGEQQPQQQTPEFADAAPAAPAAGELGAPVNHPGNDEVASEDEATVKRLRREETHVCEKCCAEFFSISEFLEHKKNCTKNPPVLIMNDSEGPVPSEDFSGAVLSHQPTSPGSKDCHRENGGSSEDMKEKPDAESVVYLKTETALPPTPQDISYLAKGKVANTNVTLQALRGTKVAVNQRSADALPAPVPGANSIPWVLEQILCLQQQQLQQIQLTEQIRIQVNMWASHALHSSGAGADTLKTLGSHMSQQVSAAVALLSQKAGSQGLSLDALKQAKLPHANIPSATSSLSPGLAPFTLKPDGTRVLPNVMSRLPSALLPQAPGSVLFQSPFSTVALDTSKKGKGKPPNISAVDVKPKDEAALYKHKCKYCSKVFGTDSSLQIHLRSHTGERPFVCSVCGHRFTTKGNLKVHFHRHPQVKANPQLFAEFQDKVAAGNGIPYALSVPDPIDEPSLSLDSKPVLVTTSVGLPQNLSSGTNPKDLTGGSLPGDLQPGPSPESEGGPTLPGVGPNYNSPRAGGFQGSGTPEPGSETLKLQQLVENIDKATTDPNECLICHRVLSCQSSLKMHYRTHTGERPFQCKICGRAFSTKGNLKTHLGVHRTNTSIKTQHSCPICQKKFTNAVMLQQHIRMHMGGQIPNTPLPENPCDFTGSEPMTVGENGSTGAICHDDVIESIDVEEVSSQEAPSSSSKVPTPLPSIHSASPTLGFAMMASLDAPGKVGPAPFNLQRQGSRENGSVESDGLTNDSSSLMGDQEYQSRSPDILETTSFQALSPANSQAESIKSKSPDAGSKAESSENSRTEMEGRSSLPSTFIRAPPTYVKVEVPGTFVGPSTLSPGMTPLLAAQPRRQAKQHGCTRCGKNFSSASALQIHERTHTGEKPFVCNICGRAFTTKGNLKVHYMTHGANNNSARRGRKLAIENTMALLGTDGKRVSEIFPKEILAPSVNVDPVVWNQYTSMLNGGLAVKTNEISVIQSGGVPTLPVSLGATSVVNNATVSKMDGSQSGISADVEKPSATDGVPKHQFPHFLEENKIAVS
# Setting: 8-mer, flanks averaged, mean of replicates
Oligonucleotide,E-score
TATCGACA,0.0391
CTTCCAAG,-0.0519
ATAGTACC,0.0515
GACAGTCC,-0.252
ACACCGCA,-0.165
CCACAGGA,-0.0177
AGGAAAGA,0.00928
ACGACTCT,0.018
AGTCGTGA,-0.0703
GGCCGGCC,-0.321
CAAGCCAC,-0.28
AAAGATCT,0.0471
CCCTCTAA,-0.0731
CCAAGCCG,-0.361
ATTGCCTG,0.0433
GTGTCCTA,-0.0946
AAAGAGCG,-0.106
GTAAGAAA,0.0364
AGCCTAAC,-0.059

# Block 5 — method: RNA Bind-n-Seq; molecule type: RNA; sample: in vitro; tested at: 365 nM; reference: no-protein control; direction: higher = stronger binding
# Target: RNA binding protein fox-1 homolog 2, RRM domain, GST-SBP tag (RBFOX2, Homo sapiens, UniProt O43251-10, residues 100-194)
# Setting: natural RNA segment, single round, ends assumed
# Constant ends, left off below: GGGAGUUCUACAGUCCGACGAUC … UGGAAUUCUCGGGUGCCAA
Oligonucleotide,RBNS enrichment (R)
CUUGGGAAGAAAUGGCCAUUAUUUACAGAUUGUAUUUGGUACAUAUUGUGUGAUACUUGAAAAGAUAAAAGGGACUGCCAGCCCCUAACUGAAAUCUGAAGCUUUUUAUC,0.545
UCUAUAUGGACACAACAGUAAGAAGAAUGGGGCCUCGUCCCUGUCGACUUGAAUAUUAUCCCUAUGUAUUGCAUGAGAGGGGUCUCCCUCAUUCCAUCAGAGUAAUACAC,0.913
UUCAAUAGAAGCUGGAUCCUUAAUACUGCAUUUUCUGAAUUCUGUUUUAAUAUUUGUGUUAAAGUAGACAUAGCUGAACUCACAUGGAAUCCUGGAGUUUUGUUAUCAGC,0.379
ACUGCCUGGAUGUGUUUGAUUUUUUAAAGCGUAGACAUAUAUUUAUGAAUGUGCAUUUCUUGACUUCACAGCAGCCACUUGACUAAUACCUUGUGUUCCGGGAAUAACAU,0.38
GGGAUGAGGUUUGUACUUUCCUGAACUUGAAUUUCAAACACUAACUGUAUCCUAUGAGUGACGUGUGUGUUGGGGGAGGGUGGGCCUGCCUGGUGUUACACAGAGCAUGG,3.87
AGUUAACUUUAAAGUAUAUACAGUUUGCAAAAAAUGAUUCAAAUUAAUUGGUUUGUAUAUGUUUGUGAGAUCUAGCUUCUGAGGAAUCUCAUACAUAGUAGGAACCAUCA,0.857
GCUUUUCAUUUAGGUAGAUGGUAAGCAUUCUCUUAAUCAUAAUUAGAACAAACUAGUGACCAAAUUGUCAUCUGCUAGUAUGGAAGUUCUUAGUUUUCUUAACCAUGCUU,0.452
UGCUUGCUGUCAUAGUGCAGAGCAGAAACUUGCACACUAUUUAGAGAGCUCCCUUCCCACCUCUCUGCCCAGCCUUGUUACCUCACUUCUGCUCUGGCCAUGGCUGUGAA,0.52

# Some of these lines once more (block 3):
Oligonucleotide,bound/input enrichment
CGUCCUUGUUAAGCACUGCUUUCCAGACCGUGUCUGACUUAGUCAACCUAGAGGAUUUUAUAGUUUCACUCUAAUGAAGUCCUGAUUAACACAGAGCAGCGGAGCAGCGGUCCCUCCCCU,0.41 ratio
CCUACAAAUCUCCUUAAUUAUAACAUUCACAGCCACAGAACUAAUCAUAUUUUAUAUCUUCUUCGAAACCACACUUAUCCCCACCUUGGCUAUCAUCACCCGAUGAGGCAACCAGCCAGA,2.25 ratio
UCAGGGUGGAAGUCCAUGAUUCAGUCUCACCCUCAUUUAGUAGCAGAAGCCUUUCGAGCACUAGCAUCUGCACAGUGUCCACAGUUUGGCAUUCCACGCAAACGGCUAAAACAGUCCUGA,0.0996 ratio
CCAGUUUGUAUGUACAUUAUUCAUAUUCCUCUCUGUUGUGUUUCGGGGGGAAAAGACAUUUUAGCCUUUUUUAAAAGUUACUGAUUUAAUUUCAUGUUAUUUGGUUGCAUGAAGUUGCCC,6.13 ratio
UACUUUUAUUCCAAGGGGGAGCUCAGGAGAUGGCAUUCCCAGAAAGUAUUUUAGUACAUCAAGCGACCAGAGCCAAAGCCUUAAAUCCAACCCACACACAACUGAAGAUCGCCUCCUCCC,0.463 ratio
CCAGACAGCCCCUCUCCAGAUAGAUUUGGGAUGUUGCCAUUGGGUGAGCCUGCUGUUCUCAUCAGUGAGUUCCUGGACCGGUUUCAAAGCCUUUGCCAUUUGGACCUCCAACUUCCUUCU,0.0979 ratio
GACACCUAUCCAGUGUUUCAGAGACUCUUCCUUGAGAGUUCUGAUGCGAACCCAGUGCGCUAUGGACGUAGGCGGAUGAAGCUCCGGGACCUAAUGGAAGCAGCCAAUAUAUUUCUACAG,0.177 ratio
AGGCUCAUCCAGCCAUAUAUCCAUAACUACUCCUGGCUGCUCUUUGCUGCCCUGGCUCUCUAUAGCGCCCACCUGGCCAGUGCAGAGGAUGUGGAUGGGGAGAAGCUGGACCCCCAGACG,0.359 ratio
